Results from different studies.
Compare with care: the assays were run in different laboratories. “And” joins repeats or separate records; there may be more than shown. ± marks the error that the study gave. In brackets after ≈: the same amount, converted by molar mass.

SMILES | test | system | conditions | how to read | measurement | value
O[C@H]1CCCN[C@@H]1CCCn1cnc2c(Cl)c(Cl)ccc21 |  | healthy CYP2D6 intermediate metabolizers, plasma | oral, 150 mg single dose |  | AUC(0-12) | 0.758 µg·h/mL
COc1cc2c(Oc3ccc4[nH]c(C)cc4c3F)ccnc2cc1OCC1(N)CC1 |  | paediatric recurrent refractory sarcoma | 12 mg |  | grade 1 or 2 sinus bradycardia | 0%
C[C@]1(CO)Cc2ncn(-c3ccc(C#N)c(Cl)c3)c2C(=O)O1 |  | Japanese subjects | 80 mg single dose |  | drug-related Headache incidence | 0%
C#CC[C@H](NC(=O)[C@H](Cc1ccccc1)NC(=O)CCNC(=S)Nc1ccc2c(c1)C(=O)OC21c2ccc(O)cc2Oc2cc(O)ccc21)C(=O)N[C@@H](C)C(=O)N[C@@H](CC(C)C)C(=O)N[C@@H](CC(=O)O)C(=O)N[C@@H](Cc1c[nH]c2ccccc12)C(=O)N[C@@H](CO)C(=O)N[C@@H](Cc1c[nH]c2ccccc12)C(=O)N[C@@H](CC(C)C)C(=O)N[C@@H](CCC(N)=O)C(=O)N[C@H](C(=O)N[C@@H](CCC(=O)O)C(N)=O)[C@@H](C)O | dynamic light scattering | PBS/DMSO | 10 nM |  | hydrodynamic diameter | 359 ± 107 nm
N[C@@H]1c2ccccc2OC12CCN(c1cnc3c(N4CCCc5ncccc54)n[nH]c3n1)CC2 |  | advanced solid tumour patients | oral, 75 mg once daily |  | serious TEAE grade ≥3 | 42.9%
CCCCCCCCCCCCCCCC(=O)N[C@@H](CCC(=O)NCCCC[C@H](NC(=O)[C@H](CC(=O)O)NC(=O)[C@H](CO)NC(=O)[C@@H](NC(=O)[C@H](Cc1ccccc1)NC(=O)[C@@H](NC(=O)CNC(=O)[C@H](CCC(N)=O)NC(=O)[C@H](CO)NC(=O)[C@@H](N)Cc1c[nH]cn1)[C@@H](C)O)[C@@H](C)O)C(=O)N[C@@H](CO)C(=O)N[C@@H](CCC(=O)O)C(=O)N[C@@H](Cc1ccc(O)cc1)C(=O)N[C@@H](CC(C)C)C(=O)N[C@@H](CC(=O)O)C(=O)N[C@@H](CO)C(=O)N[C@@H](CCC(=O)O)C(=O)N[C@@H](CCCNC(=N)N)C(=O)N[C@@H](C)C(=O)N[C@@H](CCCNC(=N)N)C(=O)N[C@@H](CC(=O)O)C(=O)N[C@@H](Cc1ccccc1)C(=O)N[C@H](C(=O)N[C@@H](C)C(=O)N[C@@H](Cc1c[nH]c2ccccc12)C(=O)N[C@@H](CC(C)C)C(=O)N[C@@H](CCC(=O)O)C(=O)N[C@@H](C)C(=O)NCC(=O)NCC(=O)O)C(C)C)C(=O)O | measured: Headache | humans all renal groups | subcutaneous, 100 µg single dose |  | treatment-related adverse events | 16.2%
CC(C)C[C@H](NC(=O)[C@H](CCCCN)NC(=O)OCC1c2ccccc2-c2ccccc21)C(=O)N[C@H](C(=O)N[C@@H](Cc1ccccc1)C(=O)N[C@@H](Cc1ccccc1)C(=O)N[C@@H](CCCCN)C(=O)NCC(=O)N[C@@H](Cc1ccccc1)C(=O)N[C@@H](C)C(=O)N[C@@H](Cc1c[nH]c2ccccc12)C(=O)N[C@@H](CC(N)=O)C(=O)N[C@H](C(=O)N[C@H]1CSSC[C@@H](C(=O)N[C@@H](Cc2c[nH]cn2)C(=O)N[C@@H](CCCNC(=N)N)C(=O)N[C@@H](CCCNC(=N)N)C(=O)N[C@@H](C)C(=O)N[C@@H](CC(N)=O)C(N)=O)NC(=O)[C@H](C(C)C)NC(=O)[C@H](CCCNC(=N)N)NC(=O)[C@H](C(C)C)NC(=O)CNC(=O)[C@H](CC(N)=O)NC(=O)[C@H](CCCNC(=N)N)NC(=O)[C@H](Cc2ccc(O)cc2)NC(=O)[C@H](C(C)C)NC1=O)C(C)C)C(C)C | HPLC | mouse liver homogenate | 2560 µM, 4.00 h, 50 mg/mL tissue |  | remaining peptide | 50.1% and 47.7% and 43.4%
CCS(=O)(=O)Nc1ccc(Oc2ccc(F)cc2F)c(-c2cn(C)c(=O)c3[nH]ccc23)c1 | serious malignant neoplasm progression | human, relapsed/refractory AML | oral, dose not given |  | treatment-emergent adverse events | 5%
O=C(Nc1ccccc1)C1CCN(C(=O)Oc2cccnc2)CC1 | Bond-Lader VAS | healthy women | oral, 60 mg | baseline: pre-dose baseline, direction not given | change in Tense-Relaxed score | 12
O=C(Nc1ccc(F)cc1)Nc1ccc2c(c1)C=CCP(=O)(O)O2 | HPLC-UV | 50 mM PBS | 16 h, pH 7.4, 25 °C, upper limit 2.5 mg/mL |  | kinetic solubility | 2.35 mg/mL (≈ 6.75 mM)
CO[C@H]1C[C@@H]2CC[C@@H](C)[C@@](O)(O2)C(=O)C(=O)N2CCCC[C@H]2C(=O)O[C@H]([C@H](C)C[C@@H]2CC[C@@H](OC(=O)NCCOCCOCCOCCOCCOCCOCCOCCOCCC(=O)N3CCc4cc(Cn5nc(-c6ccc7oc(N)nc7c6)c6c(N)ncnc65)ccc4C3)[C@H](OC)C2)C[C@@H](O)[C@H](C)/C=C(\C)[C@@H](O)[C@@H](OC)C(=O)[C@H](C)C[C@H](C)/C=C/C=C/C=C/1C | dose-escalation trial | patients with advanced solid tumours | intravenous, all doses weekly, grade ≥3 |  | maculopapular rash TEAE incidence | 3.5%
C1=Cc2nc1cc1ccc([n-]1)c(-c1ccccc1)c1nc(cc3ccc([n-]3)c2-c2ccccc2)C=C1.CC(=O)[O-].[Mn+3] | LC-MS/MS | Sprague-Dawley rat, plasma | oral gavage, dose not given, 240 min, individual rat Rat1 |  | plasma concentration | 0.044 µg/mL
Cn1cncc1-c1c(F)cncc1NC(=O)c1c(N)nn2cc(F)cnc12 |  | human patients | oral, 180 mg once daily |  | grade ≥3 anaemia incidence | 73%
N=C(N)NCCC[C@@H](NC(=O)[C@@H](N)Cc1ccccc1)C(=O)N[C@@H](Cc1ccccc1)C(=O)N[C@@H](CCCCN)C(N)=O | LC-MS | human | 15 mg, 23.83 h |  | mean amount excreted in urine | 333000 ng
